Published values collected from several papers.
Each line is one published result; not all experiments were run side by side. ± marks the error that the study gave.
TDP1: Tyrosyl-DNA phosphodiesterase 1 (TDP1, Homo sapiens, UniProt Q9NUW8)
Chain of UniProt Q9NUW8 (whole entry, looked up): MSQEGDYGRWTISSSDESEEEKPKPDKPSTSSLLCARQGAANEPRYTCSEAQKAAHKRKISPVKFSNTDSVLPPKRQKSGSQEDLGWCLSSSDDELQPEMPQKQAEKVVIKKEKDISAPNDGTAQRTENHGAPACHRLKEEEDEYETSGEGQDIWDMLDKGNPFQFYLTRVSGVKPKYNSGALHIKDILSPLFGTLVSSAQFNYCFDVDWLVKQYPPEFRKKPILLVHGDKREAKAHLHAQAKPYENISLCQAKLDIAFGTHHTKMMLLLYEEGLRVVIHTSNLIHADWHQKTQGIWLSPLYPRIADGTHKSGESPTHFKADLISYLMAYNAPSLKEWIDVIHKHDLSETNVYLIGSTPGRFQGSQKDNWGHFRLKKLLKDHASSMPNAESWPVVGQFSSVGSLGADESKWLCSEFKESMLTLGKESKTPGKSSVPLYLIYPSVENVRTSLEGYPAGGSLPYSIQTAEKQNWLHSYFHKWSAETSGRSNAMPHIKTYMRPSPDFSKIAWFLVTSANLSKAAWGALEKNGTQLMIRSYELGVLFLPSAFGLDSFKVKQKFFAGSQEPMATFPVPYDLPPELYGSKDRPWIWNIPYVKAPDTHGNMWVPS

SMILES	target or system	test	test system	conditions	measurement	result
[11CH3]N1CCC(NC(=O)c2cc(-c3c(O)cc(O)cc3Oc3ccc([N+](=O)[O-])cc3)on2)CC1	–	–	Wistar rat, female, healthy, blood	intravenous, 30 min	tissue uptake	5.3 ± 1.1 %ID
COc1cccc(OC)c1-c1cc(C(=O)NC2(C(=O)O)C3CC4CC(C3)CC2C4)nn1-c1ccc(C(=O)N(C)CCCN(C)C(=O)[C@H](CCCCNC(=O)[C@H](CC(C)C)NC(=O)C2OC2C(=O)O)NC(=O)CN2CCN(CC(=O)[O-])CCN(CC(=O)[O-])CCN(CC(=O)[O-])CC2)cc1C(C)C.[177Lu+3] (mixture of isomers)	–	–	mouse, HT-29 xenograft, spleen	72 h post injection	tissue uptake	0.25 %ID/g
Cc1cc(C)n(CCN(CCN)CCCCCCNC(=O)[C@@H](N)Cc2c[nH]cn2)n1.[99Tc+].[C-]#[O+].[C-]#[O+].[C-]#[O+]	–	–	BALB/c nude mice, MCF7 xenograft, stomach	intravenous, 4 h	tissue uptake	0.26 ± 0.02 %IA/g
N#C[C@@H]1CC(F)(F)CN1C(=O)CNC(=O)c1ccnc2c(NC(=O)[C@H](CCCCNC(=O)CCOCCOCCOCCOCCOCCOCCNC(=O)CN3CCN(CC(=O)[O-])CCN(CC(=O)[O-])CCN(CC(=O)[O-])CC3)NC(=O)CCCc3ccc(I)cc3)cccc12.[177Lu+3]	–	–	mouse, U-87 MG tumour xenograft, spleen	4 h	tissue uptake	1.31 ± 0.64 %ID/g
[123I]c1ccc2nc(-c3ccc(-n4ccnn4)nc3)cn2c1	–	–	Wistar rat, male, red marrow	intravenous, 4 MBq, 5 min	tissue uptake	0.993 ± 0.272 %ID/g
COc1cccc(OC)c1-c1cc(C(=O)NC2(C(=O)O)C3CC4CC(C3)CC2C4)nn1-c1ccc(C(=O)N(C)CCOCCOCCN(C)C(=O)[C@H](CCCCNC(=O)[C@H](CC(C)C)NC(=O)C2OC2C(=O)O)NC(=O)CN2CCN(CC(=O)[O-])CCN(CC(=O)[O-])CCN(CC(=O)[O-])CC2)cc1C(C)C.[177Lu+3] (mixture of isomers)	–	–	mouse HT-29 xenograft, small intestine	72 h post injection, biodistribution	tissue uptake	0.082 %ID/g
O=C(O)CCCOc1ccc([18F])cc1-c1cc(-c2ccccc2C(F)(F)F)n(-c2ccccc2)n1	–	–	mouse, small intestine	intravenous, dose not given, 60 min	tissue uptake	3.91 ± 0.32 %ID/g
N#C[C@@H]1CC(F)(F)CN1C(=O)CNC(=O)c1ccnc2c(NC(=O)CCOCCOCCOCCOCCOCCOCCNC(=O)[C@H](CCCCNC(=O)CN3CCN(CC(=O)[O-])CCN(CC(=O)[O-])CCN(CC(=O)[O-])CC3)NC(=O)CCCc3ccc(I)cc3)cccc12.[177Lu+3]	–	–	mouse, U-87 MG tumour xenograft, kidneys	48 h	tissue uptake	0.78 ± 0.46 %ID/g
COc1cccc(OC)c1-c1cc(C(=O)NC2(C(=O)O)C3CC4CC(C3)CC2C4)nn1-c1ccc(C(=O)NCCNC(=O)[C@H](CCCCNC(=O)[C@H](CC(C)C)NC(=O)C2OC2C(=O)O)NC(=O)CN2CCN(CC(=O)[O-])CCN(CC(=O)[O-])CCN(CC(=O)[O-])CC2)cc1C(C)C.[177Lu+3] (mixture of isomers)	–	–	mouse, HT-29 xenograft, muscle	72 h post injection	tissue uptake	0.08 %ID/g
CS(=O)(=O)C(C=NOCc1ccc2nc(-c3ccccc3)c(Nc3ccc(C(=O)O)cc3)n2c1)c1nc2ccccc2[nH]1 (centres unmarked)	TDP1	enzyme activity, inhibitor	–	100 µM, unpurified compound	inhibition	5.5%
Cc1n[nH]c(C)c1C(=O)CC1(O)C(=O)Nc2cc(Cl)cc(Cl)c21 (centres unmarked)	Uncharacterized protein (Trypanosoma brucei brucei, UniProt Q386Q8)	inhibitor, coupled colorimetric	Trypanosoma brucei	–	IC50	> 100 µM
COc1cccc(OC)c1-c1cc(C(=O)NC2(C(=O)O)C3CC4CC(C3)CC2C4)nn1-c1ccc(C(=O)N(C)CCOCCN(C)C(=O)[C@H](CCCCNC(=O)[C@H](CC(C)C)NC(=O)C2OC2C(=O)O)NC(=O)CN2CCN(CC(=O)[O-])CCN(CC(=O)[O-])CCN(CC(=O)[O-])CC2)cc1C(C)C.[177Lu+3] (mixture of isomers)	–	–	mouse, HT-29 xenograft, liver	24 h post injection	tissue uptake	0.9 %ID/g
COc1ccc(Nc2nc(Nc3ccc(OCCOCCOCC[18F])cc3)ncc2Br)cc1	–	–	ICR mice, S180 tumour-bearing, kidney	intravenous, 370 kBq, 30 min	tissue uptake	4.39 ± 0.07 %ID/g
O=C(NCC1OC2CCC=CCCC2O1)c1ccc([18F])nc1 (centres unmarked)	–	–	healthy female BALB/c nude mice, muscle	intravenous, 7.4 MBq per mouse, 60 min	tissue uptake	1.1 ± 0.36 %ID/g
N#C[C@@H]1CC(F)(F)CN1C(=O)CNC(=O)c1ccnc2c(NC(=O)[C@@H](N)CCCCNC(=O)CCOCCOCCOCCOCCOCCOCCNC(=O)CN3CCN(CC(=O)[O-])CCN(CC(=O)[O-])CCN(CC(=O)[O-])CC3)cccc12.[177Lu+3]	–	–	mouse, U-87 MG tumour xenograft, salivary gland	4 h	tissue uptake	0.38 ± 0.14 %ID/g
COc1ccc(Nc2nc(Nc3ccc(OCCOCC[18F])cc3)ncc2Br)cc1	–	–	ICR mice, S180 tumour-bearing, muscle	intravenous, 370 kBq, 5 min	tissue uptake	1.87 ± 0.28 %ID/g
Cc1nn(Cc2ccccc2Cl)c(Cl)c1C=NOCc1ccc(-c2nc3cc(-c4ccccc4)ccn3c2Nc2ccc(C(=O)O)cc2)cc1	TDP1	enzyme activity, inhibitor	–	100 µM, unpurified compound	inhibition	54.5%
CCCC[C@H](NC(=O)CNC(=O)CNC(=O)[C@H](CCCCNC(=O)[C@H](CC(=O)O)NC(=O)C(C)c1ccc(CC(C)C)cc1)NC(=O)CN1CCN(CC(=O)O)CCN(CC(=O)O)CCN(CC(=O)O)CC1)C(=O)N[C@H]1CC(=O)NCCCC[C@@H](C(N)=O)NC(=O)[C@H](Cc2c[nH]c3ccccc23)NC(=O)[C@H](CCCNC(=N)N)NC(=O)[C@@H](Cc2ccccc2)NC(=O)[C@H](Cc2c[nH]cn2)NC1=O (some centres unmarked) [lutetium-177 labelled]	–	–	C57 mouse, brain	intravenous, 2 h, with: 10 µg NDP-MSH co-injection	tissue uptake	0.07 ± 0.02 %ID/g
CCCC[C@H](NC(=O)COCCOCCNC(=O)CN1CCN(CC(=O)O)CCN(CC(=O)O)CC1)C(=O)N[C@H]1CC(=O)NCCCC[C@@H](C(N)=O)NC(=O)[C@H](Cc2c[nH]c3ccccc23)NC(=O)[C@H](CCCNC(=N)N)NC(=O)[C@@H](Cc2ccccc2)NC(=O)[C@H](Cc2c[nH]cn2)NC1=O [fluorine-18 labelled]	–	–	C57 mice, B16/F10 melanoma, spleen	intravenous, 1 h, with: NDP-MSH 10 µg	tissue uptake	0.09 ± 0.13 %ID/g
COc1cccc(OC)c1-c1cc(C(=O)NC2(C(=O)O)C3CC4CC(C3)CC2C4)nn1-c1ccc(C(=O)N(C)CCCN(C)CCCN(C)C(=O)[C@H](CCCCNC(=O)[C@H](CC(C)C)NC(=O)C2OC2C(=O)O)NC(=O)CN2CCN(CC(=O)[O-])CCN(CC(=O)[O-])CCN(CC(=O)[O-])CC2)cc1C(C)C.[177Lu+3] (mixture of isomers)	–	–	mouse, HT-29 xenograft, muscle	4 h post injection	tissue uptake	1.7 %ID/g

A few entries again:
SMILES	target or system	test	test system	conditions	measurement	result
COc1cccc(OC)c1-c1cc(C(=O)NC2(C(=O)O)C3CC4CC(C3)CC2C4)nn1-c1ccc(C(=O)N(C)CCCN(C)C(=O)[C@H](CCCCNC(=O)[C@H](CC(C)C)NC(=O)C2OC2C(=O)O)NC(=O)CN2CCN(CC(=O)[O-])CCN(CC(=O)[O-])CCN(CC(=O)[O-])CC2)cc1C(C)C.[177Lu+3] (mixture of isomers)	–	–	mouse, HT-29 xenograft, spleen	72 h post injection	tissue uptake	0.25 %ID/g
Cc1cc(C)n(CCN(CCN)CCCCCCNC(=O)[C@@H](N)Cc2c[nH]cn2)n1.[99Tc+].[C-]#[O+].[C-]#[O+].[C-]#[O+]	–	–	BALB/c nude mice, MCF7 xenograft, stomach	intravenous, 4 h	tissue uptake	0.26 ± 0.02 %IA/g
